# Results collected from several papers.
# Parts stem from different laboratories: compare values within a part only. Positions count from the first letter of the parent shown.
# UniProt P29376, sequence (whole entry, looked up): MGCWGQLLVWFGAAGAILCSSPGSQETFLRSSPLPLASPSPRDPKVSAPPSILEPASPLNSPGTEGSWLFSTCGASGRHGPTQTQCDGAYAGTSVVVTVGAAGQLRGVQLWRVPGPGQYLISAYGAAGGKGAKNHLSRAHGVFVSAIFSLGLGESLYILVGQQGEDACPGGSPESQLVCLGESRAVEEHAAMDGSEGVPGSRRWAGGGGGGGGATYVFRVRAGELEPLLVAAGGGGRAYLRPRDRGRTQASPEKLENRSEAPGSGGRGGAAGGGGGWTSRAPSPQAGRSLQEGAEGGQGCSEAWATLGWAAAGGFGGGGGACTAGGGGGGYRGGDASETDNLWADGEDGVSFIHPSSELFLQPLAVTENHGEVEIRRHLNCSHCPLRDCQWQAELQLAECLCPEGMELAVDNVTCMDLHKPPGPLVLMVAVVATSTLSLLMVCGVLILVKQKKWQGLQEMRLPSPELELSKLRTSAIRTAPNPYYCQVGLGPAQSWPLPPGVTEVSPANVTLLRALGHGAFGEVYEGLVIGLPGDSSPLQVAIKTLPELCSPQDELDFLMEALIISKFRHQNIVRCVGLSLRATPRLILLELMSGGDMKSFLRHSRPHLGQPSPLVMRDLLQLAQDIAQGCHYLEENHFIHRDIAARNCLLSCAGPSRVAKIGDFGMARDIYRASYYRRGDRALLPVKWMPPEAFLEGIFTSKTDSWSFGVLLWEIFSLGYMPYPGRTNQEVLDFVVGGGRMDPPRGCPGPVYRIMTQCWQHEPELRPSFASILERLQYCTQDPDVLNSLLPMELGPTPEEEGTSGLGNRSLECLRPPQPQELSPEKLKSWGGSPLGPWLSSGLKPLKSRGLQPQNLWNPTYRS

# Sample 1
# Target: Krueppel-like factor 3, full length (KLF3, Homo sapiens, UniProt P57682, residues 1-345)
# UniProt P57682, sequence (whole entry, looked up): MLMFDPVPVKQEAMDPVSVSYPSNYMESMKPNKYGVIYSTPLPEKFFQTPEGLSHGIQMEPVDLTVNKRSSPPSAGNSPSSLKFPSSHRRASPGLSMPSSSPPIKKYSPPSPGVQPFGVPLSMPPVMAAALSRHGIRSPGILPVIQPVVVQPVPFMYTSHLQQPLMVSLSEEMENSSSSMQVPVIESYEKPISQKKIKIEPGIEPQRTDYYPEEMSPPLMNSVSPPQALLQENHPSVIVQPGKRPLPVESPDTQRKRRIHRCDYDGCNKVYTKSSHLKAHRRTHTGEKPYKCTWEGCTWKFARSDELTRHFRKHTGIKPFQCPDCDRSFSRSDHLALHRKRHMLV
# Method: protein-binding microarray
# Molecule type: hairpin DNA
# Matrix: in vitro
# Concentration: not given
# Notes: whole hairpin DNA, median over replicate spots
# Relative to: not given
# Reading: higher = stronger binding
# Constant ends, left off below: GAGGCCG … CGGCCTCACACTC
Strand,median fluorescence [a.u.]
ACCACGCCCAGCCTCCTGGCTGGGCGTGGT,9860
ACCACGCCCGGCCTCCTGGCCGGGCGTGGT (5mC at 28),10200
ACCGCGCCCAGCCTCCTGGCTGGGCGCGGT (5mC at 10 34),8700
ACGACGCCCAGCCTCCTGGCTGGGCGTCGT (5mC at 9 35),8030
CGCGCGCCCAGCCTCCTGGCTGGGCGCGCG,11500
CCCACGCCCAGCCTCCTGGCTGGGCGTGGG (5mC at 8),8980
CGCGCGCCCAGCCTCCTGGCTGGGCGCGCG (5mC at 8),9170
ACCGCGCCCAGCCTCCTGGCTGGGCGCGGT (5mC at 15),8620

# Sample 2
# Target: Prothrombin, mature alpha-thrombin (F2, Homo sapiens, UniProt P00734)
# Method: aptamer microarray, sandwich
# Molecule type: DNA with 2'F-ANA
# Matrix: in vitro
# Concentration: 200 nM
# Notes: whole 15-mer aptamer, many near background
# Added: Cy3 exosite-II aptamer, 400 nM
# Reading: higher = stronger binding
# Strand: GGTTGGTGTGGTTGG
Modification,mean fluorescence intensity
2'F-ANA at 1 2 3 5 6 7 10 12 13 15,51.5 a.u.
2'F-ANA at 1 2 3 4 6 9 13,99.9 a.u.
2'F-ANA at 2 5 6 9 10 14 15,52.4 a.u.
2'F-ANA at 2 7 8 10 13 14,88.7 a.u.
2'F-ANA at 1 5 7 8 9 12 14 15,51.4 a.u.
2'F-ANA at 1 4 5 6 7 8 10 12 13 14 15,47.3 a.u.
2'F-ANA at 1 3 8 10 11,75.5 a.u.
2'F-ANA at 2 4 6 8 10 13 15,65 a.u.

# Mixed results
# P1: viral docking peptide; CKVKRKLFGSENI; partner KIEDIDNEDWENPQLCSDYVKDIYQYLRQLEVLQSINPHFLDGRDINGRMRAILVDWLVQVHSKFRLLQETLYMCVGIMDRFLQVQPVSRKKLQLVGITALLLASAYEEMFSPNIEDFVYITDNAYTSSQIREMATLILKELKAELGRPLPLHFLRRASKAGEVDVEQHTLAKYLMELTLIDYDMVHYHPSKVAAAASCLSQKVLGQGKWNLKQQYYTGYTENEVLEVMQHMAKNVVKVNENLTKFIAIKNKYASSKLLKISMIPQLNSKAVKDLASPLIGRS
Molecule,target,test,system,conditions,scale,endpoint,result
CN(C)c1ccc(C=C2C(=O)Nc3ccccc32)cc1,"LTK (Homo sapiens, UniProt P29376)","enzyme activity, inhibitor, radiometric",,0.5 µM,,remaining activity,96.8%
P1 C1A,"CCNB2, cyclin fold, Cln2 fusion (human)","yeast growth competition, sequencing",yeast,weak parent motif,"relative to: not given, higher = stronger binding",normalised enrichment score,1.12

# Excerpt of the above (sample 1):
Strand,median fluorescence [a.u.]
CCCACGCCCAGCCTCCTGGCTGGGCGTGGG (5mC at 8),8980
CGCGCGCCCAGCCTCCTGGCTGGGCGCGCG (5mC at 8),9170
